Measurements pooled from the literature.
A part holds a random share of what one study measured. Substitutions count along the parent as printed.

Study 1
Target: Sal-like protein 4, full length isoform B (SALL4, Homo sapiens, UniProt Q9UJQ4-2, residues 1-616)
Technique: universal PBM
Molecule type: double-stranded DNA, one strand shown
Matrix: in vitro
Tested at: not given
Notes: 8-mer, flanks averaged, mean of replicates
Direction: higher = stronger binding
Residues (chain): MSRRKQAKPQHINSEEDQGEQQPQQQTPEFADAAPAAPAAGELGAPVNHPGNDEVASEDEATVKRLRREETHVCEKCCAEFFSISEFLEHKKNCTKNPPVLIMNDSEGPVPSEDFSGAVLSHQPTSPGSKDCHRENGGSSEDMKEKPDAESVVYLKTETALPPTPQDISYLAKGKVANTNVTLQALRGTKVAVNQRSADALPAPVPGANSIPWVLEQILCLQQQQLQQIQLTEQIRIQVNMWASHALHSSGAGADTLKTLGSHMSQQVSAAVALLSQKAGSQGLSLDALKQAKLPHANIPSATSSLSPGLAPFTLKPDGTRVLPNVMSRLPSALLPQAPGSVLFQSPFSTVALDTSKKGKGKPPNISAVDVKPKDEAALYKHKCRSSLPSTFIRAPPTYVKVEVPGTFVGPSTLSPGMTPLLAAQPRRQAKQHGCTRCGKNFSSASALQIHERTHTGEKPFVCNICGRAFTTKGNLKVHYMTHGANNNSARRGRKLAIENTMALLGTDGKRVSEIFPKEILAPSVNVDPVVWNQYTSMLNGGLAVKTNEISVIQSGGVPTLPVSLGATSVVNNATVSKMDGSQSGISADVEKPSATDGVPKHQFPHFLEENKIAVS
`ATGGTTTA` has an E-score of 0.256.
For `CCTGACTA`, the E-score was 0.0794.
`ATAGCCGG` gave an E-score of -0.107.
For `CTCAAAGA`, the E-score was -0.0665.
The E-score of `GGCCTTAA` is reported as 0.00358.
The E-score of `CAGTGAGA` is reported as -0.0845.
`CCACGTCA` has an E-score of -0.00772.
For `CCAGGCCG`, the E-score was -0.307.
With `ATGTCAAC` the E-score was 0.199.
For `ACCTTGTG`, the E-score was -0.137.
`ACATCTTA` gave an E-score of 0.0988.
`CAGTTGAA` gave an E-score of -0.0488.
The E-score of `AGATCCTC` is reported as -0.0852.

Study 2
Target: Histone acetyltransferase KAT6A, both winged helices, GST fusion (KAT6A, Homo sapiens, UniProt Q92794, residues 1-181)
Technique: protein binding microarray
Molecule type: double-stranded DNA, one strand shown
Matrix: in vitro
Tested at: not given
Notes: 8-mer, flanks averaged, mean of 2 arrays, mostly near background
Baseline: not given
Direction: higher = stronger binding
Target sequence (chain): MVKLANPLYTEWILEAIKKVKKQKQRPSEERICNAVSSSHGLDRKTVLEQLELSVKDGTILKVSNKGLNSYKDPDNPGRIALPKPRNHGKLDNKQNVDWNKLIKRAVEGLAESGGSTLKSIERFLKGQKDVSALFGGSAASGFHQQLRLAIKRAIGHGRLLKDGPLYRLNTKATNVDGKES
For `GAGCGGAC`, the E-score was 0.217.
The E-score of `AATGGTCC` is reported as 0.00843.
`CAACATAA` gave an E-score of 0.087.
`CGTAGGTA` has an E-score of 0.0161.
With `ATGATGTG` the E-score was -0.0661.
`CTCTGCCA` has an E-score of -0.138.
With `CCTACGGC` the E-score was 0.196.
For `AGCAACGG`, the E-score was 0.114.
With `AGGCATTA` the E-score was -0.262.
For `GACGGTGA`, the E-score was 0.107.
`CAAGCGAA` has an E-score of -0.0729.
For `CACGTCAC`, the E-score was -0.037.

Study 3
Target: Centromere-binding protein 1, full length, His-tagged (CBF1, Saccharomyces cerevisiae, UniProt P17106, residues 1-351)
UniProt P17106, sequence (whole entry, looked up): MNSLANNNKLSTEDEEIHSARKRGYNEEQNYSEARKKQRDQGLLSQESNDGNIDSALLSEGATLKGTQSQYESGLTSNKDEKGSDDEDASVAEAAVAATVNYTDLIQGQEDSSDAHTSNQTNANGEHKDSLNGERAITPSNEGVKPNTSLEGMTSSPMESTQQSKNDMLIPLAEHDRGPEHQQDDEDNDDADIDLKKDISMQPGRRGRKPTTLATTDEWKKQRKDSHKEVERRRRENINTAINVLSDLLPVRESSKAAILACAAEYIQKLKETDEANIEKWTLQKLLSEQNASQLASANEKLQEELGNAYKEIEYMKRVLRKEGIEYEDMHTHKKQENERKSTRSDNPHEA
Technique: competition protein-binding microarray
Molecule type: double-stranded DNA, one strand shown
Matrix: in vitro
Tested at: 2 µM
Notes: whole 60-bp probe, lowest competitor level
With: Pho4 competitor, 0.05 µM
Direction: higher = stronger binding
Shared flanks, not repeated: … GTCTTGATTCGCTTGACGCTGCTG
For `CGTCCTAGTGATTTTCACGTGCCTTCCATGAGGAAG`, the fluorescence intensity was 1540 a.u.
For `ATTTTTTGATATCCACACGTTATTGAGCTCATTGAC`, the fluorescence intensity was 107 a.u.
With `AAATTACTAAGTTGAAGTGTGGGTGACGCCGTATGA` the fluorescence intensity was 59.6 a.u.
The fluorescence intensity of `TTCCGTTATTGTTAGCGCGTGAAACTGCCATGTCGG` is reported as 84.1 a.u.
`GTCTTGTCTCATTGTCATGTGGGTGTCCCCACTTCA` has a fluorescence intensity of 196 a.u.
`CTTTCCCGATCTTTTCACGTGCACTTAGCACATTTG` has a fluorescence intensity of 1190 a.u.
With `AGCACCCTGGTATTTCTCGTGATGGTCTGCCCTTCA` the fluorescence intensity was 96.6 a.u.
`CTTGTGTTGCTTGGAAGTGTGATGGATACCCATTGT` has a fluorescence intensity of 95.7 a.u.
`CACTTTTCTGGGTCTCTCGTGGTAGTCTTCCTTGTT` gave a fluorescence intensity of 83 a.u.
`TGGTCTAGTCTTACCCACGCACTCGCAGGAACAAAC` gave a fluorescence intensity of 59.1 a.u.
`GGTGCTGTTATTTGTCATGCCATTTGCTCTGGATTA` has a fluorescence intensity of 83.8 a.u.
`CGGGGTTAAGTTTGGAGTGTGGGTGGCTTGCAGCAG` gave a fluorescence intensity of 73 a.u.
`ACATCTGTCTGGTTTGACGTGACAAATACCTTTCTT` gave a fluorescence intensity of 93.8 a.u.
With `CAACACCCTCCAGAGACCGTGCCGAAGTTGTTCGAG` the fluorescence intensity was 59.4 a.u.

Study 4
Target: RNA binding protein fox-1 homolog 2, RRM domain, GST-SBP tag (RBFOX2, Homo sapiens, UniProt O43251-10, residues 100-194)
Technique: RNA Bind-n-Seq
Molecule type: RNA
Matrix: in vitro
Tested at: 365 nM
Notes: natural RNA segment, single round, ends assumed
Baseline: no-protein control
Direction: higher = stronger binding
Shared flanks, not repeated: GGGAGUUCUACAGUCCGACGAUC … UGGAAUUCUCGGGUGCCAA
Construct (chain): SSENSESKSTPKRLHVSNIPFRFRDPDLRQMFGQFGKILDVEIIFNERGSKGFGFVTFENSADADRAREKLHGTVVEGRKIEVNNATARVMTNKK
`CCGCCGCCCCACCAGUUAAACGGAUGACCAAAGACCUUUCUUAUGCCGGAAGCAAAAACCAAAACUUUUUGUUGGCUUUUUCCUUUGUCGCCUCCCCAGCACCUGCCCUC` — result for “RBNS enrichment (R)”: 0.434.
For `GUUCUUCAAGCCAGCUCUAGGCUUCAGGCCGAGCCAGGUUCACACUCAGAAAGAGGUCUCCCCAUCCCCAUUCGGGGCUGACGAUGGGGGGCUGAUGGCUGCCCCUGCGU`, “RBNS enrichment (R)” read 0.216.
`AAUGUAAAAGUGUCAUACAAUUUAGAAGAUUUUUGAAGAUGGUAAACUUAGAAGAAUUCUAUGUUCUGAAAUGCACACUUUUAGAAUGUUUUUCUUUGAAAACAGGCUAA`: “RBNS enrichment (R)” 0.655.
For `UUCUUUAAGUUGACUUUUUUUACUUCAUUAUUUUUAGGAAUAAAUGUAAGAUUUUACAAAUCUUUUAUUUCCCCACAAGAUCUGAAGUUUGGUAUUUUUGCAUUAUGACA`, “RBNS enrichment (R)” read 2.41.
`GGUGUGAGUGAGACAGUGGGGCACAGGUUGGGUUUGCCAAACGCCUAAUUACCAGGCCAGGAAGCAUGCCAACAAAGCCACACGGGUGUCCUAGCCAGCUUCCCUUCACC` — result for “RBNS enrichment (R)”: 0.258.
`CCAAGCAAGCCAGUGAGCAGCCCGGCCAGACCCUGCUGGACUGAGAGACCCAGCCGCUGACAGUCCCUGGGGCUUGCCUUCUUUGCCAAGCCAAUGGGAAACCAAAAGGA` — result for “RBNS enrichment (R)”: 0.433.
For `ACCUUCUUAUUUAUGUAACUGGCUUUCAUUUAGAUUGUAAGUUAUGGACAUGAUUUGAGAUGUAGAAGCCAUUUUUUAUUAAAUAAAAUGCUUAUUUUAGGCUCCGUCCC`, “RBNS enrichment (R)” read 0.404.
`GCGGCAGGGUGCAGCGAGCUGUUUUCACGAGGCCUCCAGGUGACUGGAUGUAAGCUUGCUUGAGAACUAUGGGUUUUAGCUAUUCUGGUGUCUCCCUGAUUUUCUACAGC`: “RBNS enrichment (R)” 0.285.

Study 5
Target: ABI1, truncated, D143A, DHFR fusion (Arabidopsis thaliana)
Technique: DHFR PCA, deep sequencing
Matrix: yeast
Notes: methotrexate growth selection, single substitutions
With: (+)-ABA 2500 µM
Baseline: wild-type fitted maximum
Direction: higher = stronger binding
Starting sequence: PYL1, truncated, DHFR fusion (Arabidopsis thaliana); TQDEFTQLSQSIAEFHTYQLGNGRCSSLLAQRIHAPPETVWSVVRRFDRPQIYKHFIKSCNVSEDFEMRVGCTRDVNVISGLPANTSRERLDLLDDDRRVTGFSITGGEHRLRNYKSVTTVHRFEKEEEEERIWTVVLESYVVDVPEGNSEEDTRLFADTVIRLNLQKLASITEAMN; partner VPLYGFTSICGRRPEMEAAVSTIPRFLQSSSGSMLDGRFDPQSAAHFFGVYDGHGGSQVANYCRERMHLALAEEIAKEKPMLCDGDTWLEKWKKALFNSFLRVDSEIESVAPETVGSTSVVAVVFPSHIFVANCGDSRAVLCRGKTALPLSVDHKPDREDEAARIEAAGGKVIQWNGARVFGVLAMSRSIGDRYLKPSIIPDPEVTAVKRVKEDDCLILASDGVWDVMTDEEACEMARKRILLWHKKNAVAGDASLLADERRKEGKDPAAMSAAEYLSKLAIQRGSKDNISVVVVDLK
`T119R`: “relative binding score” 63.8%.
Under “relative binding score”, `Y53S` is recorded as 81%.
For `C25A`, “relative binding score” read 97.9%.
For `G71E`, “relative binding score” read 80.3%.
`N22I` — result for “relative binding score”: 94.7%.
`G108T`: “relative binding score” 73.2%.
`F5I` — result for “relative binding score”: 101%.
Under “relative binding score”, `V78F` is recorded as 80.6%.
For `V40T`, “relative binding score” read 85.1%.
`D65I` — result for “relative binding score”: 84.7%.

Study 6
Target: CCND3, cyclin fold, Cln2 fusion (human)
Technique: yeast growth competition, sequencing
Matrix: yeast
Notes: weak parent motif
Baseline: not given
Direction: higher = stronger binding
Starting sequence: MICAL3 docking peptide (human); LQLRRQLSFSEDS; partner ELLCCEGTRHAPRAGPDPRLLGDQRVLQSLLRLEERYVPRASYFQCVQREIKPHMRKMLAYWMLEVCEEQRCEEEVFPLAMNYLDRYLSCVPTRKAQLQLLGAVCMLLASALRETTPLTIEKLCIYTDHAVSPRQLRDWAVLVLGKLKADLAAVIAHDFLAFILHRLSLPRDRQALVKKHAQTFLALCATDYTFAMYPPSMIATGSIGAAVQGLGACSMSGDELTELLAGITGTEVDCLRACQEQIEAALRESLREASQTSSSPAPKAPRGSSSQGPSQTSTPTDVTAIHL
`Q6L` — result for “normalised enrichment score”: 0.193.
For `L3V`, “normalised enrichment score” read 0.0299.
`Q6D` — result for “normalised enrichment score”: -0.217.
For `L7R`, “normalised enrichment score” read 0.217.
For `R5N`, “normalised enrichment score” read 0.316.
Under “normalised enrichment score”, `Q6P` is recorded as -0.208.
Under “normalised enrichment score”, `S8H` is recorded as 0.693.
`Q6E`: “normalised enrichment score” -0.108.
`F9L` — result for “normalised enrichment score”: -0.187.
`L7C`: “normalised enrichment score” -0.181.
`Q2Y` — result for “normalised enrichment score”: 0.311.
`R5T`: “normalised enrichment score” 0.0777.
`S10C` — result for “normalised enrichment score”: 0.172.
`Q2E` — result for “normalised enrichment score”: -0.0904.
Under “normalised enrichment score”, `S10E` is recorded as 0.375.
Under “normalised enrichment score”, `Q6A` is recorded as -0.289.

Some of these lines once more (study 3):
The fluorescence intensity of `TTCCGTTATTGTTAGCGCGTGAAACTGCCATGTCGG` is reported as 84.1 a.u.
`GTCTTGTCTCATTGTCATGTGGGTGTCCCCACTTCA` has a fluorescence intensity of 196 a.u.
`CTTTCCCGATCTTTTCACGTGCACTTAGCACATTTG` has a fluorescence intensity of 1190 a.u.
With `AGCACCCTGGTATTTCTCGTGATGGTCTGCCCTTCA` the fluorescence intensity was 96.6 a.u.
`CTTGTGTTGCTTGGAAGTGTGATGGATACCCATTGT` has a fluorescence intensity of 95.7 a.u.
`CACTTTTCTGGGTCTCTCGTGGTAGTCTTCCTTGTT` gave a fluorescence intensity of 83 a.u.
